Experimental data collected from several papers.
Each numbered part is a random draw from the data of one study; scales do not carry over between parts. Positions count from the first letter of the parent shown.

Series 1 — technique: RNA Bind-n-Seq; molecule type: RNA; matrix: in vitro; tested at: 365 nM; reference: no-protein control; direction: higher = stronger binding
Target: RNA binding protein fox-1 homolog 2, RRM domain, GST-SBP tag (RBFOX2, Homo sapiens, UniProt O43251-10, residues 100-194)
Notes: natural RNA segment, single round, ends assumed
Residues (chain): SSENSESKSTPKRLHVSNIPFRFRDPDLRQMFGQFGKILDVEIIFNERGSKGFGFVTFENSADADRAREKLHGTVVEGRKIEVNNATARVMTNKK
`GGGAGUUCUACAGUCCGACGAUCUUCUGACUUCUGUUUUUACUAAUGGAAGCUUUGCAAAUUGAAUUCUCAGUGAGUUGUAUAUUUAUACACCUGGCUUGAAGCCUUAAUUGUAUAUAAUGAUGCUUUUUAAAUGGAAUUCUCGGGUGCCAA`: “RBNS enrichment (R)” 0.344.
`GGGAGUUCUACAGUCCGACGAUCCUUCUAGAAUGCUCUGUCCAGGGUCUGCAACUUCCCUGGGCUCUGACUUAGGAGUGAUGUGGCUAACUGAGGCCUGAGUGAGUGUGUAGAUUGUCCUUGGGUGAGUGAGAUGGAAUUCUCGGGUGCCAA`: “RBNS enrichment (R)” 3.82.
`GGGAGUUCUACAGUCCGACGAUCAUUAGUGAUUUGGAAAGUUAACAGUAAGAAGACUAACUUUUCAAAACAGUUGCAUCUGUAGAUUAAGAUGCUUUACAUUAGACCGUUGUGUCUCGAUGUAUAUCUGUAUAUGGAAUUCUCGGGUGCCAA` — result for “RBNS enrichment (R)”: 0.363.
`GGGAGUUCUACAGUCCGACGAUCUUGAUCUGUUCAACAAAUAUUUACUAAACACUUCUAAGCUAACAUUAGGGCAGUGACUGAGGUGGAAACCCAGCUCUUUAGACAGCUGUCAUCCUAGGAUAGCUUCCUGGUGGAAUUCUCGGGUGCCAA`: “RBNS enrichment (R)” 0.965.
Under “RBNS enrichment (R)”, `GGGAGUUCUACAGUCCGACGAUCAGUUCUCUCUUCUUUUCCUCAGGUAGGACAGCUCUAGCAUUUUCUUAAUCAGGAAUAUUGUGGUAAGCUGGGAGUAUCACUCUGGAAGAAAGUAACAUCUCCAGAUGAGAUGGAAUUCUCGGGUGCCAA` is recorded as 0.195.
`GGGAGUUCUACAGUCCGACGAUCUUUCCAAGGCACGGUGUGGACGCAUCUGUCACCGACCCGAGGUGACGUGGUACUGGGAUGUGAGUGCAGUAGUGAGUCCCCCUGGGAAGGGAAGGGAGAUCACCACGUCCUGGAAUUCUCGGGUGCCAA` — result for “RBNS enrichment (R)”: 0.958.
For `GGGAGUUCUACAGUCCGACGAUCCACUGCCUUCACCUUCACCUUCAUCCAUGUCCAACCCCCGACUUCAUCCCAAAGGACAGCCGCCUGGAGAUGACUUGAGGCCUUACUUAAACCCAGCUCCCUUCUUCCCUUGGAAUUCUCGGGUGCCAA`, “RBNS enrichment (R)” read 0.471.
For `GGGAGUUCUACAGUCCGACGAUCUUUUCAAAGAAACAGCUGUGCUAAUGUCUUUGGUUUCCCGAUGAGUGUACACUACUGUAUAAUUUAUGUUUACCAUAUGAGUCUUGAAACACUACAGAUAUUUUGAAUAUUGGAAUUCUCGGGUGCCAA`, “RBNS enrichment (R)” read 0.561.

Series 2 — target: CCNB2, cyclin fold, Cln2 fusion (human); technique: yeast growth competition, sequencing; matrix: yeast; notes: weak parent motif; reference: not given; direction: higher = stronger binding
Starting sequence: CDC25A docking peptide (human); PPHRRRLLFACSP
For `PPHSRRLLFACSP [R4S]`, “normalised enrichment score” read -0.205.
`PCHRRRLLFACSP [P2C]`: “normalised enrichment score” 0.96.
For `PKHRRRLLFACSP [P2K]`, “normalised enrichment score” read 0.516.
`PPHRRRYLFACSP [L7Y]`: “normalised enrichment score” 0.696.
For `PPTRRRLLFACSP [H3T]`, “normalised enrichment score” read 0.104.
Under “normalised enrichment score”, `PPHRRRGLFACSP [L7G]` is recorded as 0.298.
`PPVRRRLLFACSP [H3V]`: “normalised enrichment score” 1.33.
`PPHRRRLLFTCSP [A10T]`: “normalised enrichment score” 0.488.
For `PPHRRRLLFRCSP [A10R]`, “normalised enrichment score” read 1.05.
Under “normalised enrichment score”, `PPHNRRLLFACSP [R4N]` is recorded as 0.755.
`PPHRRRLKFACSP [L8K]`: “normalised enrichment score” 0.519.
`PPHRRRILFACSP [L7I]`: “normalised enrichment score” 0.64.
Under “normalised enrichment score”, `PPHRRRLLFAKSP [C11K]` is recorded as 0.00878.
For `PPHRRRLLFACSD [P13D]`, “normalised enrichment score” read 1.19.
`PPHRAAAAFACSP [R5A R6A L7A L8A]`: “normalised enrichment score” -0.112.
`PPHRRRLLFQCSP [A10Q]`: “normalised enrichment score” 0.767.
`PPHRRRLLFACIP [S12I]`: “normalised enrichment score” 0.74.
For `PPHRRRLSFACSP [L8S]`, “normalised enrichment score” read -0.013.
For `PPHRRRLLFHCSP [A10H]`, “normalised enrichment score” read 0.412.
For `PPHLRRLLFACSP [R4L]`, “normalised enrichment score” read 0.836.
Under “normalised enrichment score”, `PPHKRRLLFACSP [R4K]` is recorded as 0.818.
For `PPHRRRLLFACSI [P13I]`, “normalised enrichment score” read 0.449.
For `PHHRRRLLFACSP [P2H]`, “normalised enrichment score” read 0.758.
Under “normalised enrichment score”, `PPHRRRLCFACSP [L8C]` is recorded as 0.652.
`PPHRRRLLFVCSP [A10V]`: “normalised enrichment score” 0.302.

Series 3 — technique: protein-binding microarray; molecule type: double-stranded DNA, one strand shown; matrix: in vitro; tested at: 250 nM; notes: 60-bp whole probe; added: salmon DNA 0.4 mg/ml; reference: random background probes; direction: higher = stronger binding; shared flanks, not repeated: GCCTAGCAC … GTCTTGATTCGCTTGACGCTGCTG
Target: Interferon regulatory factor 7, full length, phosphomimetic (IRF7, Homo sapiens, UniProt Q92985, residues 1-503, S101K/S471D/S472D/S475D/S476D/S477D/S483D/S484D/S487D)
Target sequence (chain): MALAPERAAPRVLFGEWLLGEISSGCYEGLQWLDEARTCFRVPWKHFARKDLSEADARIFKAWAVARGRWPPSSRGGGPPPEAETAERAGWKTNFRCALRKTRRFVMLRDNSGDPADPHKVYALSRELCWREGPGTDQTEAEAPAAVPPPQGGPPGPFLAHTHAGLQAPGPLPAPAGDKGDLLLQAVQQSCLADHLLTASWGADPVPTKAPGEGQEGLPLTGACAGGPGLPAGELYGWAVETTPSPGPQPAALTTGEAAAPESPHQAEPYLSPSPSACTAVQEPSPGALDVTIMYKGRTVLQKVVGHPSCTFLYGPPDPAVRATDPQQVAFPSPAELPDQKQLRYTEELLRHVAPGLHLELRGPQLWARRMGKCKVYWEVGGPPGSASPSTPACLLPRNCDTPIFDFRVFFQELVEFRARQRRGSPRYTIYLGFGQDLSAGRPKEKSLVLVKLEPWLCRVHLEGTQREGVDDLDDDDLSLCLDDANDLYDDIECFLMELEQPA
With `TCTATCTGCAGACTCTCACAGTGCTAG` the log fluorescence was 0.328 z-score.
For `GGCGGACTGGGTCTCGGGACGTGCTAG`, the log fluorescence was -0.838 z-score.
`GACGGACTGGGGTATCGAGACGTGCTA` has a log fluorescence of -0.689 z-score.
`TCATTTCTCTCTGTGACACTGTGCTAG` has a log fluorescence of 2.08 z-score.
For `TTAGGGCTCCTACTGCTTTAGTGCTAG`, the log fluorescence was -0.466 z-score.
For `GACGGACTGGAAACTGGGGACGTGCTA`, the log fluorescence was -0.062 z-score.
`CTGGGTATTTTTCTAAACCAGTGCTAG` has a log fluorescence of 0.697 z-score.
The log fluorescence of `TTAGGTTTCTACTTTCGGTTAGTGCTA` is reported as 6.95 z-score.
With `GGCGGACTGGGGTATCGGGACGTGCTA` the log fluorescence was -0.756 z-score.
The log fluorescence of `TTAGAACTGGGGGTTCGATTAGTGCTA` is reported as 0.934 z-score.
For `GACGGAGTGCTACTGCTGACGTGCTAG`, the log fluorescence was -0.667 z-score.
`TTAGGTTTCCTACTGCTTTAGTGCTAG` has a log fluorescence of 0.942 z-score.
`TTAGGAATGGGTTTCGGTTAGTGCTAG` has a log fluorescence of 7.16 z-score.
With `TTATGTTTCGACTATCGGTTAGTGCTA` the log fluorescence was 2.42 z-score.
`GACGGTATCGACACTGGGGAGGTGCTA` has a log fluorescence of -0.257 z-score.
The log fluorescence of `TTAGAACTGAGTCTCGATTGGTGCTAG` is reported as 1.84 z-score.
For `ATTCTTTGCTCATTTTTCAGGGTGCTA`, the log fluorescence was 0.61 z-score.
For `TTAGGTCTCCTTCTCCTTTCGTGCTAG`, the log fluorescence was 0.407 z-score.
For `TCAACTCTTCCTTTACTACTGTGCTAG`, the log fluorescence was 0.599 z-score.

Series 4 — technique: universal PBM; molecule type: double-stranded DNA, one strand shown; matrix: in vitro; tested at: 600 nM; direction: higher = stronger binding
Target: Sal-like protein 4, full length isoform A (SALL4, Homo sapiens, UniProt Q9UJQ4, residues 1-1053)
Sequence of UniProt Q9UJQ4 (whole entry, looked up): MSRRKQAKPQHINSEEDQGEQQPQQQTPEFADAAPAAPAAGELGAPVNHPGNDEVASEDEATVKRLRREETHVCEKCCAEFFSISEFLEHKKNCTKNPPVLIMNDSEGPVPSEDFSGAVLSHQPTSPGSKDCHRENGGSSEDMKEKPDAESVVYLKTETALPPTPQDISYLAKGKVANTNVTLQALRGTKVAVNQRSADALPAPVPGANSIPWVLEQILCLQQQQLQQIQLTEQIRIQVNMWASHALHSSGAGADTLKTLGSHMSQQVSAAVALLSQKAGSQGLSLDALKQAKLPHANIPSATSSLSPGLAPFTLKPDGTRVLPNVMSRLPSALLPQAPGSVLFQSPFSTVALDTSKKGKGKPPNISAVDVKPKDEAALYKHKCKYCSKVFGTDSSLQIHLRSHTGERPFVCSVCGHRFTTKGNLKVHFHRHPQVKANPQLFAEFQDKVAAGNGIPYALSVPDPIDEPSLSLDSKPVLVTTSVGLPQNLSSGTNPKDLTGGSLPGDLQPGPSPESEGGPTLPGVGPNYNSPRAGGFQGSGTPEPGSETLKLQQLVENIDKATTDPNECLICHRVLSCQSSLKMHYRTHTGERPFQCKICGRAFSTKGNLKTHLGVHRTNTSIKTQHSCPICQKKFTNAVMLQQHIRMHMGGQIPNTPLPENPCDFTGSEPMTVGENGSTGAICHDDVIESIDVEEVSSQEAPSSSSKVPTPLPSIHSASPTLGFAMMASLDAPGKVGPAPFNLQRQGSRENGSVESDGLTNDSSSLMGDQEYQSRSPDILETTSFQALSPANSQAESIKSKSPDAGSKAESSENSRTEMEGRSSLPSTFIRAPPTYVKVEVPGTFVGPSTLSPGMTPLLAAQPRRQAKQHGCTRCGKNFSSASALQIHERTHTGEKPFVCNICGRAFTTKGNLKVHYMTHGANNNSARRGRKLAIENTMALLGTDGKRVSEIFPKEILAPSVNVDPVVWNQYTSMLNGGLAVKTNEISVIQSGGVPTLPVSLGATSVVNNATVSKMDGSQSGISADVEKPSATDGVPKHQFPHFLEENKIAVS
Notes: 8-mer, flanks averaged, mean of replicates
`AGCTCTGA` has an E-score of -0.139.
`ACGGTGAG` gave an E-score of -0.127.
`TCATTTAA` has an E-score of 0.19.
For `GTTGATAA`, the E-score was 0.335.
`CTTTGCCA` gave an E-score of 0.0704.
`AATAATCT` has an E-score of 0.403.
`ATGAGTAC` has an E-score of 0.201.
The E-score of `AGCCACGC` is reported as -0.103.
With `ACAGCGTG` the E-score was -0.0854.
For `AACATTTG`, the E-score was 0.15.
The E-score of `GTTAGGGA` is reported as -0.0272.
For `ATACAAGC`, the E-score was 0.0931.
`AGACATCG` gave an E-score of -0.155.
`GTGACGGA` has an E-score of -0.135.
`CAGGCAGA` gave an E-score of 0.0104.
With `CAGCATCG` the E-score was -0.27.
The E-score of `AGTGTGGC` is reported as -0.108.
With `AGGAGAGA` the E-score was 0.101.
For `GAGTCAGA`, the E-score was 0.111.
For `GGTTGGCA`, the E-score was -0.127.
`CCCCAGAG` gave an E-score of -0.37.
